{"data": "Experimental data from different studies", "target": "Aurora kinase B (AURKB, Homo sapiens, UniProt Q96GD4)", "note": "Lines come from different studies, so protocols differ. Values joined by “and” are separate records of one study, mostly repeats; a detail may differ."}
{"Compound": "Nc1ncc2c(n1)-c1c([nH]c3ccc(C4=CCOCC4)cc13)CCC2", "assay": "binding, competition with immobilised ligand", "conditions": "1 µM", "endpoint": "remaining binding", "result": "81%"}
{"Compound": "CC1CCN(c2ccc(-c3n[nH]c(=O)c4cccnc34)cc2)CC1", "assay": "cell-free assay, competition with immobilised ligand", "conditions": "10 µM", "endpoint": "remaining binding", "result": "13%"}
{"Compound": "CNC(=O)C1CCN(c2cc(C)c(F)cc2NC(=O)c2ccc(-c3cc(O)ccc3C)c(C)c2)CC1", "assay": "binding, competition with immobilised ligand", "conditions": "1 µM", "endpoint": "remaining binding", "result": "100%"}
{"Compound": "CS(=O)(=O)Nc1cccc(-c2csc3cnc(Nc4ccc(N5CCN(CCCCCOc6cccc7c6C(=O)N(C6CCC(=O)NC6=O)C7=O)CC5)cc4)nc23)c1 (stereo not shown)", "assay": "probe labelling, inhibitor, KiNativ chemoproteomics", "test system": "MOLT-4", "conditions": "1 µM", "endpoint": "inhibition", "result": "63.2%"}
{"Compound": "COc1ccc(C(=O)/C=C/c2ccccc2-c2c[nH]c3ccc(C#N)cc23)c(O)c1", "assay": "enzyme activity, inhibitor", "conditions": "20 µM", "endpoint": "inhibition", "result": "16%"}
{"Compound": "C=CC(=O)Nc1cccc(-c2cnc3[nH]cc(C(=O)NC(C)(C)C)c3n2)c1", "assay": "kinase activity", "conditions": "0.1 µM", "endpoint": "inhibition", "result": "16% and 19%"}
{"Compound": "Cc1cccc(O[C@H]2CCC[C@@H](C(C)CNCc3ccncc3)C2)c1 (relative stereo)", "assay": "enzyme activity, inhibitor", "conditions": "10 µM", "endpoint": "inhibition", "result": "-1%"}
{"Compound": "C=CC(=O)N1CCc2ccc(-n3c(=O)ccc4cnc5ccc(-c6cnn(C)c6)cc5c43)cc21", "assay": "KINOMEscan", "conditions": "1 µM", "scale": "relative to: DMSO control", "endpoint": "remaining binding", "result": "97%"}
{"Compound": "CC(C)=CC1OC(C)(C)C2C=C3C(=O)C(Cl)=CC(O)C3C3C(O)C4OC4C(=O)C132 (stereo not shown)", "assay": "cell-free assay, competition with immobilised ligand", "conditions": "10 µM", "endpoint": "remaining binding", "result": "70%"}
{"Compound": "COCC12C(=O)NC3C4(C(OC)CC1O)C1CC5(O)C(OC)C(O)C(OC(C)=O)(C1C5OC(=O)c1ccccc1)C3(O)C(OC)C24 (stereo not shown)", "assay": "kinase activity, inhibitor, ProQinase kinase profiling", "conditions": "25 µM", "scale": "relative to: control", "endpoint": "remaining activity", "result": "106% and 101%"}
{"Compound": "O=C(Cc1ccc(OCc2ccccc2)cc1)NC1(C(=O)O)CCN(C(=O)c2ccc(-c3cccc(Cl)c3)cc2)CC1", "assay": "enzyme activity, inhibitor", "conditions": "10 µM", "endpoint": "activity vs control", "result": "78%"}
{"Compound": "COc1ccc(NC(=O)Nc2ccc3c(c2)C(=O)N(C(C)CO)CC(C)C(CN(C)Cc2ccc4c(c2)OCO4)O3)cc1 (stereo not shown)", "assay": "binding, competition with immobilised ligand", "conditions": "10 µM", "endpoint": "remaining binding", "result": "0.5%"}
{"Compound": "COc1cc(Nc2nccc(-c3cnn4nc(OC)ccc34)n2)cc(C(F)(F)F)c1", "assay": "binding, competition with immobilised ligand", "conditions": "1 µM", "endpoint": "remaining binding", "result": "100%"}
{"Compound": "c1ccc2c(Nc3cc(C4CCC4)[nH]n3)nc(Nc3ccc4nc[nH]c4c3)nc2c1", "assay": "enzyme activity, inhibitor", "conditions": "0.25 µM", "endpoint": "remaining activity", "result": "4%"}
{"Compound": "CNS(=O)(=O)Nc1nccc(Cc2c(C)c3ccc(Oc4ncccc4F)cc3oc2=O)c1F", "assay": "binding, competition with immobilised ligand", "conditions": "10 µM", "endpoint": "remaining binding", "result": "70%"}
{"Compound": "NC(=O)C[C@H]1CCc2sc3ncnc(O[C@H]4CC[C@H](N5CCOCC5)CC4)c3c21", "assay": "enzyme activity, inhibitor", "conditions": "10 µM", "endpoint": "inhibition", "result": "3%"}
{"Compound": "Nc1nc(Nc2ccccc2)sc1C(=O)c1ccccc1", "assay": "enzyme activity, inhibitor", "conditions": "10 µM", "endpoint": "remaining activity", "result": "59%"}
{"Compound": "C=CC(=O)N1Cc2nc(-c3cc(-c4cc(Cl)cnc4Cl)c(F)cc3F)n(-c3ccncn3)c2C1", "assay": "enzyme activity, inhibitor", "conditions": "1 µM", "endpoint": "inhibition", "result": "5.8%"}
{"Compound": "CN1CCN(Cc2ccc(NC(=O)c3cccc(C#Cc4cnc(N)c5ncccc45)c3)cc2C(F)(F)F)CC1", "assay": "cell-free assay, competition with immobilised ligand", "conditions": "0.5 µM", "endpoint": "remaining binding", "result": "4.5%"}
{"Compound": "Cc1ccc(-c2c(/C=C(\\C#N)C(=O)NC(C)C)n(CCCO)c3ncnc(N)c23)cc1", "assay": "cell-free assay, competition with immobilised ligand", "conditions": "1 µM", "endpoint": "remaining binding", "result": "75%"}
{"Compound": "Cc1cnc2nc1Nc1cccc(c1)COC/C=C/COCc1cc(ccc1OCCN1CCOCC1)N2", "assay": "binding", "conditions": "0.1 µM", "endpoint": "remaining binding", "result": "100%"}
{"Compound": "CN1CCN(Cc2ccc(-c3ccc(CO[C@H]4CCC[C@@H]4NC(=O)c4cc(-c5cnn(C)c5)cnc4N)cc3)cc2)CC1", "assay": "enzyme activity, inhibitor", "conditions": "0.1 µM", "endpoint": "inhibition", "result": "-13%"}
{"note": "Repeated from above:"}
{"Compound": "CN1CCN(Cc2ccc(NC(=O)c3cccc(C#Cc4cnc(N)c5ncccc45)c3)cc2C(F)(F)F)CC1", "assay": "cell-free assay, competition with immobilised ligand", "conditions": "0.5 µM", "endpoint": "remaining binding", "result": "4.5%"}
{"Compound": "CNC(=O)C1CCN(c2cc(C)c(F)cc2NC(=O)c2ccc(-c3cc(O)ccc3C)c(C)c2)CC1", "assay": "binding, competition with immobilised ligand", "conditions": "1 µM", "endpoint": "remaining binding", "result": "100%"}
{"Compound": "NC(=O)C[C@H]1CCc2sc3ncnc(O[C@H]4CC[C@H](N5CCOCC5)CC4)c3c21", "assay": "enzyme activity, inhibitor", "conditions": "10 µM", "endpoint": "inhibition", "result": "3%"}
